Results gathered from unrelated publications.
Protocols differ between the studies behind these lines. In brackets after ≈: the same amount, converted by molar mass.
Organism: Klebsiella pneumoniae

Structure (SMILES) | assay | test system | conditions | MIC [µg/mL]
Cc1c(CN(C)C(=O)/C=C/c2cnc3c(c2)CC(NC(=O)OC(C)(C)C)C(=O)N3)oc2ccccc12 (stereo not drawn) | broth microdilution | AR-0560 | – | > 32
NC(=O)[C@@H]1CC[C@@H]2CN1C(=O)N2OS(=O)(=O)O | – | ATCC 1716 ESBL | compound alone | 16 (≈ 60.3 µM)
CO/N=C(\C(=O)N[C@@H]1C(=O)N2C(C(=O)O)=C(CSc3nc(=O)c(=O)[nH]n3C)CS[C@H]12)c1csc(N)n1 | – | ALE CTX-M-15, Mueller Hinton broth | overnight, 37 °C | > 512
NC[C@H]1O[C@H](O[C@H]2[C@H](O)[C@@H](O[C@H]3O[C@H](CO)[C@@H](O)[C@H](N)[C@H]3O)[C@H](N)C[C@@H]2N)[C@H](N)C[C@@H]1O | broth microdilution | NCTC 13438 | 24 h, ambient air | 16 (≈ 34.2 µM)
CC[C@H]1OC(=O)[C@H](C)[C@@H](O[C@H]2C[C@@](C)(OC)[C@@H](O)[C@H](C)O2)[C@H](C)[C@@H](O[C@@H]2O[C@H](C)C[C@H](N(C)C)[C@H]2O)[C@](C)(O)C[C@@H](C)CN(C)[C@H](C)[C@@H](O)[C@]1(C)O | broth microdilution | BNCC 359393 | – | > 64
[H]/N=C(/N)N[C@H]1[C@H](O)[C@@H](O)[C@H](O[C@@H]2O[C@@H](C)[C@](O)(C=O)[C@H]2O[C@@H]2O[C@@H](CO)[C@H](O)[C@@H](O)[C@@H]2NC)[C@@H](N/C(N)=N\[H])[C@@H]1O | – | ALE CTX-M-15, Mueller Hinton broth | overnight, 37 °C | > 512
c1ccc(OCCn2c(CNC34CC5CC(CC(C5)C3)C4)nc3ccccc32)cc1 | – | ATCC 700603 | – | > 128
CC1(C)S[C@@H]2[C@H](NC(=O)[C@H](N)c3ccc(O)cc3)C(=O)N2[C@H]1C(=O)O | broth microdilution | – | – | 16 (≈ 43.8 µM)
N=C(N)c1cccc(OCc2ccc(COc3cccc(C(=N)N)c3)cc2)c1 | – | ATCC 13883 | compound alone | > 200
COc1cccc(CNc2ccc(C(=O)O)cc2)c1OC | broth microdilution | – | – | 64 (≈ 223 µM)
[H]/N=C(/N)N[C@H]1[C@H](O)[C@@H](O)[C@H](O[C@@H]2O[C@@H](C)[C@](O)(C=O)[C@H]2O[C@@H]2O[C@@H](CO)[C@H](O)[C@@H](O)[C@@H]2NC)[C@@H](N/C(N)=N\[H])[C@@H]1O | broth microdilution | ATCC 43816 acrAB knockout | – | 2 (≈ 3.44 µM)
C[C@@H](O)[C@H]1C(=O)N2C(C(=O)O)=C(SCCN=CN)C[C@H]12 | broth microdilution | NCTC 13438 | 24 h, 5% CO2 | 128 (≈ 428 µM)
Cc1c(CN(C)C(=O)/C=C/c2cnc3c(c2)CC(CCN)C(=O)N3)oc2ccccc12.Cl (stereo not drawn) | broth microdilution | S47889 | – | 8
CN[C@@H]1[C@@H](O[C@H]2O[C@H](CO)[C@@H](N)[C@H](O)[C@H]2O)OC2C[C@@H](N)[C@@H](O[C@H]3[C@H](O)[C@@H](O)[C@H](N)C[C@@H]3N)OC2[C@@H]1O (stereo partly drawn) | broth microdilution | NCTC 13438 | 24 h, 5% CO2 | 4 (≈ 7.41 µM)
O=C(O)C[C@@H]1CC[C@H](NC(=O)Cc2cccs2)B(O)O1 | – | ATCC 700603 ESBL | compound alone | > 128
CNC(C)C1CCC(N)C(OC2C(N)CC(N)C(OC3OCC(C)(O)C(NC)C3O)C2O)O1 (stereo not drawn) | bacterial growth | ESBL clinical isolate JMI 1052654 | – | 0.25 (≈ 0.523 µM)
CC[C@H](C)CCCCC(=O)N[C@@H](CCN)C(=O)N[C@H](C(=O)N[C@@H](CCN)C(=O)N[C@H]1CCNC(=O)[C@H]([C@@H](C)O)NC(=O)[C@H](CCN)NC(=O)[C@H](CCN)NC(=O)[C@H](CC(C)C)NC(=O)[C@@H](CC(C)C)NC(=O)[C@H](CCN)NC1=O)[C@@H](C)O | broth microdilution | ATCC 13883, cation-adjusted Mueller-Hinton broth | 18 to 20 h, 37 °C, 0.002% polysorbate 80 | 0.5 (≈ 0.428 µM)
NC[C@H]1O[C@H](O[C@H]2[C@H](O)[C@@H](O[C@H]3O[C@H](CO)[C@@H](O)[C@H](N)[C@H]3O)[C@H](N)C[C@@H]2N)[C@H](O)[C@@H](O)[C@@H]1O | broth microdilution | KP | 18 h | 16 (≈ 33 µM)
